# Results collected from several papers.
# Every numbered part comes from another study and shows a few of its results, in no order.

# Set 1
# Target: Interferon regulatory factor 7, full length, phosphomimetic (IRF7, Homo sapiens, UniProt Q92985, residues 1-503, S471D/S472D/S475D/S476D/S477D/S483D/S484D/S487D)
# Technique: protein-binding microarray
# Molecule type: double-stranded DNA, one strand shown
# Matrix: in vitro
# Tested at: 2200 nM top
# Notes: 60-bp whole probe
# Added: salmon DNA 0.4 mg/ml
# Relative to: random background probes
# Reading: higher = stronger binding
# Constant ends, left off below: GCCTAGCAC … GTCTTGATTCGCTTGACGCTGCTG
# Residues (chain): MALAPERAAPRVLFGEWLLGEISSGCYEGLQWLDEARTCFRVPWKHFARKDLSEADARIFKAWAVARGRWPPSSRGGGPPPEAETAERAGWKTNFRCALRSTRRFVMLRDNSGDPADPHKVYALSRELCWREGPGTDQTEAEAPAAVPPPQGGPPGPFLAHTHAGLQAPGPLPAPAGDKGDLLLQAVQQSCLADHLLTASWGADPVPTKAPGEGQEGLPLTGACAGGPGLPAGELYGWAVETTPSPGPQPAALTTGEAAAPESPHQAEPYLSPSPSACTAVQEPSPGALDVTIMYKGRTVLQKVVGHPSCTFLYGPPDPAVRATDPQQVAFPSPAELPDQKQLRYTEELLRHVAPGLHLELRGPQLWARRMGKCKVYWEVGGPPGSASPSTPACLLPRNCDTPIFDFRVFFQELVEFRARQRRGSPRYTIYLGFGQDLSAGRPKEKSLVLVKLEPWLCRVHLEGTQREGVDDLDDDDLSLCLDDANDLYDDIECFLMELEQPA
Oligonucleotide,fitted relative affinity
TCATACCTCATCTTTCCCACTGTGCTA,2.19 z-score
TCAGGGCTCTCTTCTGCTACTGTGCTA,-0.0359 z-score
TCACGTCTCCACCTGGGACTGTGCTAG,0.66 z-score
TTAGGACTGAGTATCGGTTAGTGCTAG,-0.106 z-score
TACGGTATCGACACTGGGGACGTGCTA,0.139 z-score
GACGAACTGGCGACTGGAGACGTGCTA,-0.28 z-score
TTAGCTCTCCTTATCCTTTAGTGCTAG,1.52 z-score

# Set 2
# Target: Phosphate system positive regulatory protein PHO4, full length, GST-tagged (PHO4, Saccharomyces cerevisiae, UniProt P07270, residues 1-312)
# Technique: competition protein-binding microarray
# Molecule type: double-stranded DNA, one strand shown
# Matrix: in vitro
# Tested at: 2 µM
# Notes: whole 60-bp probe, lowest competitor level
# Added: Cbf1 competitor, 0.05 µM
# Reading: higher = stronger binding
# Constant ends, left off below: … GTCTTGATTCGCTTGACGCTGCTG
# Target sequence (chain): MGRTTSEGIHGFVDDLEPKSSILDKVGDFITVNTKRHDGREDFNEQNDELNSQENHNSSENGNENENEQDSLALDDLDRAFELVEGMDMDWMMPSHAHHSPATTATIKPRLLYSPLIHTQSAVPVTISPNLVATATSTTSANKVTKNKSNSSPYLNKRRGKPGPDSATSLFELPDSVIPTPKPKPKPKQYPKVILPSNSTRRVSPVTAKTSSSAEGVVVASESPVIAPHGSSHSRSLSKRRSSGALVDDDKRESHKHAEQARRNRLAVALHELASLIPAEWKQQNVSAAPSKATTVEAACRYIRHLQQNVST
Oligonucleotide,fluorescence intensity [a.u.]
CGCTTTCTAAGGAGCCACGTGTAGGGGGAGCTGGTG,16200
CCGCTCCCGGCTTGCCACGTGACAAGCCACAGTGTT,15900
ACGTTTTGTCCAGATGTTCATCACCGAACAAACGTC,5650
TTACTATTTGTGTCCCACGTGCTTTATTGTCTTATG,18100
CTTCTGTAAATTTGTCACAAGACTTGACGCGCCCCG,4120
GCAGCAGTGGCCGCACTCGTGGCCGTCGAGTCATCG,8940

# Set 3
# Target: Histone acetyltransferase KAT6A, winged helix 2, GST fusion (KAT6A, Homo sapiens, UniProt Q92794, residues 85-181)
# Technique: protein binding microarray
# Molecule type: double-stranded DNA, one strand shown
# Matrix: in vitro
# Tested at: not given
# Notes: 8-mer, flanks averaged, mean of 2 arrays, mostly near background
# Relative to: not given
# Reading: higher = stronger binding
# Construct (chain): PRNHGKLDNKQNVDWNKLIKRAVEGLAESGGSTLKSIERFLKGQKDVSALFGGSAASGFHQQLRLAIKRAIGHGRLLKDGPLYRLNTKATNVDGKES
Oligonucleotide,E-score
GACTTGGC,-0.0909
CGCTCGCA,0.251
GAAAAGTC,-0.152
GCCAGACC,0.069
GAAAATAA,0.0928
AGCCTTCA,-0.045
GCGTTACC,-0.0759
ACGATTCC,-0.0961

# Other studies, line by line
Molecule,target,test,system,conditions,how to read,measurement,value
"PhoQ, residues 284 288 289 292 302 303 AQGLTV","PhoP, residues 12 14 15 18 19 NMSFL (Escherichia coli, UniProt P23836)","Sort-seq, refers to: YFP reporter",E. coli,"PhoQ-PhoP variant library, added: 10 µM Mg2+","relative to: high Mg2+ state, higher = stronger signaling",fold induction,1.16

# Some of these lines once more (set 3):
Oligonucleotide,E-score
ACGATTCC,-0.0961
CGCTCGCA,0.251
